Experimental data pooled from the literature.
Lines come from different studies, so protocols differ. Values joined by “and” are separate records of one study, mostly repeats; a detail may differ.
CDK3 with cyclin E: Cyclin-dependent kinase 3, with cyclin E (CDK3, Homo sapiens, UniProt Q00526)
CDK3 with cyclin E1: Cyclin-dependent kinase 3, with cyclin E1 (CDK3, Homo sapiens, UniProt Q00526)
CDK3: Cyclin-dependent kinase 3 (CDK3, Homo sapiens, UniProt Q00526)

CN1CC[C@@H](COc2cnc(C#N)cc2-c2ccn3nc(NC(=O)C4CC4)cc3c2)C1  inhibition (CDK3 with cyclin E; enzyme activity, inhibitor; 1 µM): 3%
Cc1cccc(O[C@H]2CCC[C@@H](C(C)CNCc3ccncc3)C2)c1 (relative stereo)  inhibition (CDK3 with cyclin E; kinase activity, kinome panel screening; 1 µM): 1%
COc1ccc(NC(=O)Nc2ccc3c(c2)C(=O)N(C(C)CO)CC(C)C(CN(C)Cc2ccc4c(c2)OCO4)O3)cc1 (stereo not shown)  remaining activity (CDK3 with cyclin E; kinase activity, KinaseProfiler; 0.03 µM, species human; reference: control): 106%
CN1C[C@@H](c2c[nH]c3cc(Br)ccc23)NC[C@@H]1c1c[nH]c2cc(Br)ccc12  remaining activity (CDK3 with cyclin E1; enzyme activity, inhibitor; 10 µM): 100%
Cc1cc(C)nc(Nc2ccc([C@@H]3CCCN(C(=O)/C=C/c4csc(C)n4)C3)nc2)n1  activity vs control (CDK3; enzyme activity, inhibitor, ADP detection; 1 µM): 101%
C=C1CCCCCCCCCC(CO)C1=O (stereo not shown)  remaining binding (CDK3; cell-free assay, competition with immobilised ligand; 10 µM): 100%
O=c1c(-c2ccc(Cl)c(CN3CCOCC3)c2)coc2cc(O)ccc12  remaining activity (CDK3 with cyclin E; enzyme activity, inhibitor; 1 µM): 94%
CN1CCN(Cc2ccc(-c3ccc(CO[C@H]4CCC[C@@H]4NC(=O)c4cc(-c5cnn(C)c5)cnc4N)cc3)cc2)CC1  inhibition (CDK3 with cyclin E1; enzyme activity, inhibitor; 0.1 µM): -10%
O=C(Cc1ccc(OCc2ccccc2)cc1)NC1(C(=O)O)CCN(C(=O)c2ccc(-c3cccc(Cl)c3)cc2)CC1  activity vs control (CDK3 with cyclin E; enzyme activity, inhibitor; 10 µM): 132%
NC(=O)[C@@H](O)C[C@H]1CCc2sc3ncnc(O[C@H]4CC[C@H](N5CCOCC5)CC4)c3c21  inhibition (CDK3 with cyclin E; enzyme activity, inhibitor; 10 µM): 9%
C=CC(=O)N1Cc2nc(-c3cc(-c4cc(Cl)cnc4Cl)c(F)cc3F)n(-c3ccncn3)c2C1  inhibition (CDK3 with cyclin E1; cell-free assay, inhibitor; 1 µM): -7.2%
COc1cc(Nc2nccc(-c3cnn4nc(OC)ccc34)n2)cc(C(F)(F)F)c1  remaining binding (CDK3; binding, competition with immobilised ligand; 1 µM): 97%
CCc1nnc(Nc2cnc([C@@H]3CCCN(C(=O)CCc4cccnc4)C3)cn2)s1  activity vs control (CDK3; enzyme activity, inhibitor, ADP detection; 1 µM): 97%
Cc1ccc(-c2c(/C=C(\C#N)C(=O)NC(C)C)n(CCCO)c3ncnc(N)c23)cc1  remaining binding (CDK3; cell-free assay, competition with immobilised ligand; 1 µM): 100%
CCN1CCN(Cc2ccc(C(=O)Nc3ccc(C)c(NCc4cnc5[nH]ccc5c4OC)c3)cc2C(F)(F)F)CC1  remaining binding (CDK3; binding, competition with immobilised ligand; 1 µM): 95%
CC(C)=CC1OC(C)(C)C2C=C3C(=O)C(Cl)=CC(O)C3C3C(O)C4OC4C(=O)C132 (stereo not shown)  remaining binding (CDK3; cell-free assay, competition with immobilised ligand; 10 µM): 98%
C=CC(=O)Nc1cccc(-c2cnc3[nH]cc(C(=O)NC(C)(C)C)c3n2)c1  inhibition (CDK3 with cyclin E; kinase activity; 0.1 µM): 13% and 11%
CN1CCN(Cc2ccc(NC(=O)c3cccc(C#Cc4cnc(N)c5ncccc45)c3)cc2C(F)(F)F)CC1  remaining binding (CDK3; cell-free assay, competition with immobilised ligand; 0.5 µM): 100%
C[C@]1(O)CCCN(c2nc(Nc3ccc(S(=O)(=O)N[C@H]4CC[C@H](CN5CCN(c6ccc(C7CCC(=O)NC7=O)cc6F)CC5)CC4)cc3)ncc2C(F)(F)F)C1 (stereo partly shown)  remaining binding (CDK3; binding, competition with immobilised ligand; 1 µM): 44%
COc1c(OCCCN2CCOCC2)ccc2c1N=C(NC(=O)c1cnc(N)nc1)N1CCN=C21  remaining activity (CDK3 with cyclin E; kinase activity, inhibitor; 1 µM; reference: untreated control): 109%
CNC1C[S+]2CC[S+]3CC[S+](C1)[Ru-4]321([N]=C=S)[n]2c3ccc(OC)cc3c3c4c(c5cc(F)c[n+]1c5c32)C(=O)NC4=O (stereo not shown)  remaining binding (CDK3; KinomeScan; 0.1 µM; reference: untreated): 95%
O=C(Nc1cc(-c2ccnc3[nH]ccc23)c(Cl)cn1)[C@H]1CCC[C@@H](NC(=O)C(F)(F)F)C1  remaining binding (CDK3; binding, competition with immobilised ligand; 0.1 µM): 9.7%

Repeated from above:
O=c1c(-c2ccc(Cl)c(CN3CCOCC3)c2)coc2cc(O)ccc12  remaining activity (CDK3 with cyclin E; enzyme activity, inhibitor; 1 µM): 94%
CN1CCN(Cc2ccc(-c3ccc(CO[C@H]4CCC[C@@H]4NC(=O)c4cc(-c5cnn(C)c5)cnc4N)cc3)cc2)CC1  inhibition (CDK3 with cyclin E1; enzyme activity, inhibitor; 0.1 µM): -10%
O=C(Cc1ccc(OCc2ccccc2)cc1)NC1(C(=O)O)CCN(C(=O)c2ccc(-c3cccc(Cl)c3)cc2)CC1  activity vs control (CDK3 with cyclin E; enzyme activity, inhibitor; 10 µM): 132%
